# Results pooled from the literature.
# Lines come from different studies, so protocols differ. ± gives the spread as reported.
Compound,cell line,assay,conditions,scale,IC50 [µM]
CCOc1cc(C)ccc1-n1c(CN2CCNCC2)nc2ccccc2c1=O,PANC-1,"cell growth or viability, ATP luminescence",72 h,,0.055
CC(C)C12OC1C1OC13C1(C)CCC4=C(COC4=O)C1CC1OC13C2OC(=O)CCC(=O)OC1OC(CO)C(O)C(O)C1O (stereo not drawn),primary prostate epithelial cells,"cell viability, XTT",47 h,,5.27
CC1CCC2C(C)C(OC(=O)CCC(=O)N3CCN(CC(=O)Nc4ccc([N+](=O)[O-])c(C(F)(F)F)c4)CC3)OC3OC4(C)CCC1C32OO4 (stereo not drawn),Hep3B,"cell growth or viability, CCK-8",,,1.13
CC(C)=CCc1c(O)cc2c(c1O)C(=O)CC(c1ccc(O)cc1)O2 (stereo not drawn),normal pig cell line,"cytotoxicity, MTT",48 h,,24.4 ± 2.7
O=c1c2ccccc2nc(CN2CCNCC2)n1-c1ccccc1,PANC-1,"cell growth or viability, ATP luminescence",72 h,,> 10
CC(C)C12OC1C1OC13C1(C)CCC4=C(COC4=O)C1CC1OC13C2OC(=O)CCCOC1OC(CO)C(O)C(O)C1O (stereo not drawn),CFPAC-1,"cell growth or viability, XTT",47 h,,0.47
CC(=O)N[C@H](C(=O)N[C@@H](CCCNC(=N)N)C(=O)N[C@@H](CCCCN)C(=O)N[C@@H](CCCNC(=N)N)C(=O)N[C@]1(C)CCCCCCC=CCCC[C@@](C)(C(=O)N[C@@H](CCCNC(=N)N)C(=O)N[C@@H](CCC(=O)O)C(=O)N[C@@H](CC(C)C)C(=O)N[C@H](C(=O)N[C@@H](CCC(=O)O)C(N)=O)C(C)C)NC(=O)[C@H](CCC(N)=O)NC(=O)[C@H](CC(C)C)NC(=O)[C@H](CC(C)C)NC(=O)[C@H](CCCNC(=N)N)NC(=O)[C@H](CCCNC(=N)N)NC(=O)[C@H](CC(C)C)NC1=O)C(C)C,SK-N-MC,cell viability,"18 h, serum-free",,~10
CCCCCCCC(=O)NCCCC[C@H](NC(=O)CCCCCCC)C(=O)N[C@@H](CCCCNC(=O)CCCCCCC)C(=O)NCC(=O)NCC(=O)NCC(=O)N[C@@H](CS)C(=O)N[C@@H](CCCNC(=N)N)C(=O)N[C@@H](CCCCN)C(=O)N1CCC[C@H]1C(=O)N[C@@H](CS)C(=O)N[C@@H](CCCNC(=N)N)C(=O)N[C@@H](CCCCN)C(=O)N1CCC[C@H]1C(=O)N[C@@H](CS)C(=O)N[C@@H](CCCNC(=N)N)C(=O)N[C@@H](CCCCN)C(=O)N1CCC[C@H]1C(=O)N[C@@H](CS)C(=O)N[C@@H](CCCNC(=N)N)C(=O)N[C@@H](CCCCN)C(=O)N1CCC[C@H]1C(N)=O,human red blood cells,haemolysis,"pH 7.4, 37 °C",relative to: Triton X-100,414
CCOc1ccccc1-n1c(C(C)N2CCN(C(=O)COc3ccc(Cl)cc3)CC2)nc2ccccc2c1=O (stereo not drawn),PANC-1,"cell growth or viability, ATP luminescence",72 h,,1.2
O=C(O)c1ccc([S][Au][PH](c2ccccc2)(c2ccccc2)[c-]2cccc2)cc1.[Fe+2].c1cc[cH-]c1,CAKI-1,"cell growth or viability, XTT",24 h,,4.17
CC[C@H](C)[C@H](NC(=O)[C@H](CCCCN)NC(=O)[C@@H](NC(=O)[C@H](CCC(N)=O)NC(=O)[C@@H](N)CCCNC(=N)N)[C@@H](C)CC)C(=O)N[C@@H](Cc1c[nH]c2ccccc12)C(=O)N[C@@H](Cc1ccccc1)C(=O)N[C@@H](CCC(N)=O)C(=O)N[C@@H](CC(N)=O)C(=O)N[C@@H](CCCNC(=N)N)C(=O)N[C@@H](CCCNC(=N)N)C(=O)N[C@@H](CCSC)C(=O)N[C@@H](CCCCN)C(=O)N[C@@H](Cc1c[nH]c2ccccc12)C(=O)N[C@@H](CCCCN)C(=O)N[C@@H](CCCCN)C(=O)N[C@@H](CC(C)C)C(=O)N[C@@H](CCC(=O)O)C(=O)N[C@H](C(=O)N[C@@H](C)C(=O)N[C@H](C(=O)N[C@@H](CC(N)=O)C(=O)N[C@@H](CC(C)C)C(=O)N[C@@H](C)C(=O)N[C@@H](Cc1c[nH]c2ccccc12)C(=O)O)C(C)C)[C@@H](C)O,CLL patient PBMCs,"cell death, PI staining flow cytometry",90 min,,3.5
C[C@H]1[C@H](OC(=O)CCC(=O)OCCC2CCN(CC(=O)Nc3ccc([N+](=O)[O-])c(C(F)(F)F)c3)CC2)O[C@@H]2O[C@@]3(C)CC[C@H]4[C@H](C)CC[C@@H]1[C@@]24OO3,PC-3 (p53 null),"cell growth, CCK-8",48 h,,> 50
CC(=O)N[C@H](C(=O)N[C@@H](CCCNC(=N)N)C(=O)N[C@@H](CCCCN)C(=O)N[C@@H](CCCNC(=N)N)C(=O)N[C@H](C(=O)N[C@@H](CC(C)C)C(=O)N[C@@H](CCCNC(=N)N)C(=O)N[C@@]1(C)CCCC=CCCC[C@@](C)(C(=O)N[C@@H](CCCNC(=N)N)C(=O)N[C@@H](CCC(=O)O)C(=O)N[C@@H](CC(C)C)C(=O)N[C@H](C(=O)N[C@@H](CCC(=O)O)C(N)=O)C(C)C)NC(=O)[C@H](CCC(N)=O)NC(=O)[C@H](CC(C)C)NC(=O)[C@H](CC(C)C)NC1=O)[C@@H](C)O)C(C)C,H3255 (EGFR L858R),"cell viability, ATP luminescence",18 h,,2.54 ± 0.69
CC[C@H](C)[C@H](NC(=O)[C@H](Cc1c[nH]cn1)NC(=O)[C@H](CCCNC(=N)N)NC(=O)[C@H](CCCNC(=N)N)NC(=O)[C@H](CCCNC(=N)N)NC(=O)CNC(=O)[C@H](CCCNC(=N)N)NC(=O)[C@H](CCCNC(=N)N)NC(=O)[C@H](CCCNC(=N)N)NC(=O)[C@H](CCC(N)=O)NC(=O)[C@H](CCCNC(=N)N)NC(=O)[C@H](CCCNC(=N)N)NC(=O)[C@H](CCCCN)NC(=O)[C@H](CCCCN)NC(=O)[C@H](CCCNC(=N)N)NC(C)=O)C(=O)N[C@H](C(=O)N[C@@H](CCCNC(=N)N)C(=O)N[C@@H](CCCCN)C(=O)N[C@@H](CCCNC(=N)N)C(=O)N[C@H](C(=O)N[C@@H](CC(C)C)C(=O)N[C@@H](CCCNC(=N)N)C(=O)N[C@@H](CCCNC(=N)N)C(=O)N[C@@H](CC(C)C)C(=O)N[C@@H](CC(C)C)C(=O)N[C@@H](CCC(N)=O)C(=O)N[C@@H](CCC(=O)O)C(=O)N[C@@H](CCCNC(=N)N)C(N)=O)[C@@H](C)O)C(C)C,H3255 (EGFR L858R),cell viability,"18 h, serum-free",,8.99
Cc1cc(Nc2nc(C[C@@]3(C(=O)O)CCN(Cc4cccc(Cl)c4F)[C@H](C)C3)cc(C)c2F)[nH]n1,Daoy,"cell growth or viability, ATP luminescence",5 days,,0.0246
CC(=O)N[C@H](C(=O)N[C@@H](CCCNC(=N)N)C(=O)N[C@@H](CCCCN)C(=O)N[C@@H](CCCNC(=N)N)C(=O)N[C@H](C(=O)N[C@@H](CC(C)C)C(=O)N[C@@H](CCCNC(=N)N)C(=O)N[C@@]1(C)CCCC=CCCC[C@@](C)(C(=O)N[C@@H](CCCNC(=N)N)C(=O)N[C@@H](CCC(=O)O)C(=O)N[C@@H](CC(C)C)C(=O)N[C@H](C(=O)N[C@@H](CCC(=O)O)C(N)=O)C(C)C)NC(=O)[C@H](CCC(N)=O)NC(=O)[C@H](CC(C)C)NC(=O)[C@H](CC(C)C)NC1=O)[C@@H](C)O)C(C)C,SK-N-MC,cell viability,"18 h, serum-free",,> 10
CCOc1ccccc1-n1c(CN2CCNCC2)nc2ccccc2c1=O,CAL-27,cell growth or viability,72 h,,0.192
Cc1cc(Oc2nc(N3CC[C@@H](c4ccncc4)C3)ncc2F)[nH]n1,SK-N-AS,cell proliferation,,,> 100

# Repeated from above:
Compound,cell line,assay,conditions,scale,IC50 [µM]
CC(=O)N[C@H](C(=O)N[C@@H](CCCNC(=N)N)C(=O)N[C@@H](CCCCN)C(=O)N[C@@H](CCCNC(=N)N)C(=O)N[C@]1(C)CCCCCCC=CCCC[C@@](C)(C(=O)N[C@@H](CCCNC(=N)N)C(=O)N[C@@H](CCC(=O)O)C(=O)N[C@@H](CC(C)C)C(=O)N[C@H](C(=O)N[C@@H](CCC(=O)O)C(N)=O)C(C)C)NC(=O)[C@H](CCC(N)=O)NC(=O)[C@H](CC(C)C)NC(=O)[C@H](CC(C)C)NC(=O)[C@H](CCCNC(=N)N)NC(=O)[C@H](CCCNC(=N)N)NC(=O)[C@H](CC(C)C)NC1=O)C(C)C,SK-N-MC,cell viability,"18 h, serum-free",,~10
Cc1cc(Oc2nc(N3CC[C@@H](c4ccncc4)C3)ncc2F)[nH]n1,SK-N-AS,cell proliferation,,,> 100
CCCCCCCC(=O)NCCCC[C@H](NC(=O)CCCCCCC)C(=O)N[C@@H](CCCCNC(=O)CCCCCCC)C(=O)NCC(=O)NCC(=O)NCC(=O)N[C@@H](CS)C(=O)N[C@@H](CCCNC(=N)N)C(=O)N[C@@H](CCCCN)C(=O)N1CCC[C@H]1C(=O)N[C@@H](CS)C(=O)N[C@@H](CCCNC(=N)N)C(=O)N[C@@H](CCCCN)C(=O)N1CCC[C@H]1C(=O)N[C@@H](CS)C(=O)N[C@@H](CCCNC(=N)N)C(=O)N[C@@H](CCCCN)C(=O)N1CCC[C@H]1C(=O)N[C@@H](CS)C(=O)N[C@@H](CCCNC(=N)N)C(=O)N[C@@H](CCCCN)C(=O)N1CCC[C@H]1C(N)=O,human red blood cells,haemolysis,"pH 7.4, 37 °C",relative to: Triton X-100,414
